{"data": "Measured values of several laboratories", "note": "Numbered parts are unrelated; each lists some results of a single study. Several values in a cell are separate wells, animals, samples, runs or records.", "UniProt Q14680, sequence (whole entry, looked up)": "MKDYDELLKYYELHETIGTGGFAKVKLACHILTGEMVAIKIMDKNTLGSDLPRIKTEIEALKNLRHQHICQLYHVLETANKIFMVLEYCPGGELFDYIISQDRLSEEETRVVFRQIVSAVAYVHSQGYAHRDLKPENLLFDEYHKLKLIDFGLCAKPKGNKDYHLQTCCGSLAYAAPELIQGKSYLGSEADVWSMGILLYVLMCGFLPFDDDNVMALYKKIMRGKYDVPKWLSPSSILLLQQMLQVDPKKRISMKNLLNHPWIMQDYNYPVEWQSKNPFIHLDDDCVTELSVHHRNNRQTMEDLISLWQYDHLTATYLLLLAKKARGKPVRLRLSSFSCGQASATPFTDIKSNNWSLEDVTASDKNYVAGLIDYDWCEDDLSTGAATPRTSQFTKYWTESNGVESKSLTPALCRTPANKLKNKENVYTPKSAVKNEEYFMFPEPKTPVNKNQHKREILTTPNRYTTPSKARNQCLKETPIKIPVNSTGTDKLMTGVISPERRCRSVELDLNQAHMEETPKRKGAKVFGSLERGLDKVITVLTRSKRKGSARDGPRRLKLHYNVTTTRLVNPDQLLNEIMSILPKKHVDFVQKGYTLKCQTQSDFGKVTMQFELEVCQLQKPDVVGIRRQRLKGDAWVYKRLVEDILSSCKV", "UniProt Q96SB4, sequence (whole entry, looked up)": "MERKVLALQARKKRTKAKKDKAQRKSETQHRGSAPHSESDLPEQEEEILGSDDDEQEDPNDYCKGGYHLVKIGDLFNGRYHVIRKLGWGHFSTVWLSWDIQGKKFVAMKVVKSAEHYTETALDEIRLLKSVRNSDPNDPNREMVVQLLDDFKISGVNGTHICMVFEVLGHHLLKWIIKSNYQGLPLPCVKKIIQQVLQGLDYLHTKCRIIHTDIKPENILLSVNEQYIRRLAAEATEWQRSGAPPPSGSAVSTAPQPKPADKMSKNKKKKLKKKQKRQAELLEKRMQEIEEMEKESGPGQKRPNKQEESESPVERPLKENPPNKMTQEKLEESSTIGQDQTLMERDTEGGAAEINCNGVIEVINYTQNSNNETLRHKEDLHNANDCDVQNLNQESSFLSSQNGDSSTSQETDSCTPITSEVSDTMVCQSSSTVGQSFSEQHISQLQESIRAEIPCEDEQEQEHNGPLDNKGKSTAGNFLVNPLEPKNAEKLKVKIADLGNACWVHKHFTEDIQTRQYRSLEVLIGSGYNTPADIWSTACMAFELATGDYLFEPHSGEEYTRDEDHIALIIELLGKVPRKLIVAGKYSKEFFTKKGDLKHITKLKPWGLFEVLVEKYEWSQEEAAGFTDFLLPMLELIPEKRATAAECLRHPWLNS", "UniProt O15530, sequence (whole entry, looked up)": "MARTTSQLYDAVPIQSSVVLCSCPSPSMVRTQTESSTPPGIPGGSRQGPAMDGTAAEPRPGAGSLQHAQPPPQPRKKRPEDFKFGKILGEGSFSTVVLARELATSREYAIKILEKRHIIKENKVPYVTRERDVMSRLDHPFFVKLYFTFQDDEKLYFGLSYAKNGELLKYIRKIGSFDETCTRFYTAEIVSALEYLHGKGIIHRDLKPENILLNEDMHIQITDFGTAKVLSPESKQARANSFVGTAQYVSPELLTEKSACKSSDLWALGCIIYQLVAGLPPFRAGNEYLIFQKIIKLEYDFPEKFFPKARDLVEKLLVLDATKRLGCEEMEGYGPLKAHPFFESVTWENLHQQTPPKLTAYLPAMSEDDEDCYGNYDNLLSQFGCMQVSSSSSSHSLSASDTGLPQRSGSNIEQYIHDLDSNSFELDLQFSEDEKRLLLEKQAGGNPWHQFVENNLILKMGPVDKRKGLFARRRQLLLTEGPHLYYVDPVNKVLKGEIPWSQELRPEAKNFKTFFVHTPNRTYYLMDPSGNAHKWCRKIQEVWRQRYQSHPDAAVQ", "UniProt Q9Y2K2, sequence (whole entry, looked up)": "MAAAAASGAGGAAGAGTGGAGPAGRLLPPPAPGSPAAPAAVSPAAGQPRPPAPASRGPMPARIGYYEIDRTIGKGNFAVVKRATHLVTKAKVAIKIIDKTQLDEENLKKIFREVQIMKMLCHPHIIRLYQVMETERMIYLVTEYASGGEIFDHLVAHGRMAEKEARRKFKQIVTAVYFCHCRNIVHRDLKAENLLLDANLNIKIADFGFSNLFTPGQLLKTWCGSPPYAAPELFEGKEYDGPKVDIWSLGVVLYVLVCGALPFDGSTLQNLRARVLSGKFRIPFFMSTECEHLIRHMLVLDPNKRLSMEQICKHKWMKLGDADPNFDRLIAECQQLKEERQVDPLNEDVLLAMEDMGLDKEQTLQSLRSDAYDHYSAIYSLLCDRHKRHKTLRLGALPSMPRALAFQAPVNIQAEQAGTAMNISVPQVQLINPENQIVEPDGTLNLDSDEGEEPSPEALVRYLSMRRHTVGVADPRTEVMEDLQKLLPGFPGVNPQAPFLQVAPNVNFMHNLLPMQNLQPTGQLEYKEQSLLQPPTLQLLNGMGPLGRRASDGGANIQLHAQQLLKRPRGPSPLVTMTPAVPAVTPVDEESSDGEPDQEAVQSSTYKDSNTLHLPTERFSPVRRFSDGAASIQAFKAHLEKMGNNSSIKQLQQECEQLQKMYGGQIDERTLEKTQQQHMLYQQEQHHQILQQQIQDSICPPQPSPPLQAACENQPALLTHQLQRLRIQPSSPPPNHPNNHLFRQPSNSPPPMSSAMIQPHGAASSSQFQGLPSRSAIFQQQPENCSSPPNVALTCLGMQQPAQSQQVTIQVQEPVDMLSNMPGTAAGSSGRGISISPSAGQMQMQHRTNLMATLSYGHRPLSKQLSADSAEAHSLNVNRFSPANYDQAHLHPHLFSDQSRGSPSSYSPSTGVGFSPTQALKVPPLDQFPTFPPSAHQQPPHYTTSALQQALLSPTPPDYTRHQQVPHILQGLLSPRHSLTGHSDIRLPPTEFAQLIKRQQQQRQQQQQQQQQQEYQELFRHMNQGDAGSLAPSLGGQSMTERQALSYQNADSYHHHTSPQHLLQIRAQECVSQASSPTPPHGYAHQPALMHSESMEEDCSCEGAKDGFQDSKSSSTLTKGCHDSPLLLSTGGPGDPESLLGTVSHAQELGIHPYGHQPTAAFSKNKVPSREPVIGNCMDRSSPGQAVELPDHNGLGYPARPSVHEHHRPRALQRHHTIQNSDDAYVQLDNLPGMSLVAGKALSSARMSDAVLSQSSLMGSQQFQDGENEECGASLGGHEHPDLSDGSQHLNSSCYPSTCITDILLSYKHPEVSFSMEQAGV"}
{"data": "Block 1", "SMILES": "CC(C)C[C@@H]1NC(=O)[C@@H](N(C)C(=O)[C@H](CC2CCC2)NC(=O)[C@@H]2C[C@@H](F)CN2C(=O)C2(C(F)(F)F)CC(F)(F)C2)CCCCNC(=O)C2(CC2)NC(=O)[C@H](Cc2cc(Cl)ccc2Cl)N(C)C1=O", "technique": "flow cytometry"}
{"cell line": "NCI-H446", "concentration": "20 nM", "time": "3 days", "together with": "Mps1 inhibitor 3 nM", "cleaved PARP positive cells": "12.4% and 11.9% and 13.3%"}
{"cell line": "NCI-H1299", "concentration": "200 nM", "time": "72 h", "cleaved PARP positive cells": "0.61% and 0.46% and 1.16%"}
{"cell line": "NCI-H82", "concentration": "20 nM", "time": "72 h", "cleaved PARP positive cells": "4.34% and 2.64% and 3.96%"}
{"cell line": "NCI-H446", "concentration": "6 nM", "time": "3 days", "together with": "Mps1 inhibitor 3 nM", "cleaved PARP positive cells": "7.24% and 8.07% and 7.49%"}
{"cell line": "HCC4006", "concentration": "200 nM", "time": "72 h", "cleaved PARP positive cells": "3.03% and 1.36% and 1.03%"}
{"cell line": "NCI-H446", "concentration": "60 nM", "time": "3 days", "notes": "without Mps1 inhibitor", "cleaved PARP positive cells": "24.1% and 29.6% and 24.3%"}
{"data": "Block 2", "SMILES": "CC(C)S(=O)(=O)c1ccc2nccc(Nc3ccc4sc(C5CCCC5)nc4c3)c2c1.Cl", "effect on": "kinase activity", "mode": "inhibitor", "concentration": "1 µM"}
{"target": "PDPK1 (Homo sapiens, UniProt O15530)", "remaining activity": "114%"}
{"target": "SIK3 (Homo sapiens, UniProt Q9Y2K2)", "remaining activity": "102%"}
{"target": "SRPK1 (Homo sapiens, UniProt Q96SB4)", "remaining activity": "99%"}
{"target": "MELK (Homo sapiens, UniProt Q14680)", "remaining activity": "93%"}
{"data": "Block 3", "target": "5-hydroxytryptamine receptor 6 (HTR6, Homo sapiens, UniProt P50406)", "effect on": "binding", "technique": "radioligand binding", "concentration": "10 µM", "UniProt P50406, sequence (whole entry, looked up)": "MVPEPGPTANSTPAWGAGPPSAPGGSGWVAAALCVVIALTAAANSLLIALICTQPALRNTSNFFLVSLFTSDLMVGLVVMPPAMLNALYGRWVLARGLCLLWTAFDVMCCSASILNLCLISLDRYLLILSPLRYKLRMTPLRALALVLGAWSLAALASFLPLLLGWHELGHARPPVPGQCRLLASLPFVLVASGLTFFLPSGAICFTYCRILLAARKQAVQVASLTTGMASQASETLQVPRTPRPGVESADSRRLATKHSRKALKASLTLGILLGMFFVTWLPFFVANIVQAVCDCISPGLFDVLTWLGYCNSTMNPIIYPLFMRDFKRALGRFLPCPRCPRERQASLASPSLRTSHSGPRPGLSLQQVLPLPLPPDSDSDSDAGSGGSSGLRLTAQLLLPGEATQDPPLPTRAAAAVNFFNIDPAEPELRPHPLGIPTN"}
{"Compound": "CCCOc1ccc([C@H]2[C@H](C(=O)O)[C@@H](c3ccc4c(c3)OCO4)CN2CC(=O)Nc2c(CC)cccc2CC)cc1", "inhibition [%]": -17.8}
{"Compound": "CC(C)(O)c1cncc(-c2nc3ccc(F)cc3n2C2CC2)c1", "inhibition [%]": 15.6}
{"Compound": "O=C1c2ccc(Nc3ccc(F)cc3F)cc2CCc2ccc(OC[C@H](O)CO)cc21", "inhibition [%]": 14.8}
{"Compound": "COCc1nc2cnc3cc(-c4c(C)noc4C)c(OC[C@H]4CCNC4)cc3c2n1[C@H](C)c1ccccc1", "inhibition [%]": -9.08}
{"Compound": "CNC(=O)c1ccc(Nc2ncc(C(F)(F)F)c(NCc3nccnc3N(C)S(C)(=O)=O)n2)cc1", "inhibition [%]": -8.99}
{"Compound": "O=C(Nc1cccnn1)N1CC(CC=Cc2cncc(Oc3ccc(C(F)(F)F)cn3)n2)C1", "inhibition [%]": 7.76}
{"Compound": "Cc1cc(C)c(-n2ccn3nc(-c4cccnc4)cc23)cc1NC(=O)c1cc(C#N)cc(S(F)(F)(F)(F)F)c1", "inhibition [%]": -17.2}
{"Compound": "CN([C@@H]1CCc2c(CC(=O)O)c3cc(S(C)(=O)=O)ccc3n2C1)S(=O)(=O)c1ccc(F)cc1", "inhibition [%]": -5.39}
{"Compound": "O=C1CCc2cc(Nc3cc(OC4CCOCC4)c([N+](=O)[O-])cc3Cl)ccc2N1", "inhibition [%]": -2.48}
{"Compound": "COc1cccc(CNC(=O)c2nc3scc(COCc4ccc(C(=O)O)cc4)c3c(=O)[nH]2)c1", "inhibition [%]": 15.8}
{"Compound": "Cc1nccc(COC(=O)N2C[C@@H]3[C@@H](CNC(=O)c4ccc5[nH]nnc5c4)[C@@H]3C2)n1", "inhibition [%]": 26.1}
{"Compound": "O=C(NC[C@@H]1[C@H]2CN(C(=O)OCc3cc(C(F)(F)F)cc(C(F)(F)F)c3)C[C@@H]12)c1ccc2[nH]nnc2c1", "inhibition [%]": 28.9}
{"Compound": "O=C(Nc1ccc(-n2nc(-c3cccnc3)cc2C(F)(F)F)cn1)c1ccc(-c2ccccc2)c(F)c1", "inhibition [%]": -16}
{"Compound": "C[C@H](NC(=O)c1cnc2n1[C@](C)(Cc1ccc(C#N)cc1)C(=O)N2c1cc(Cl)c(F)c(Cl)c1)C(=O)NC1(c2ccccn2)CC1", "inhibition [%]": 6.67}
{"Compound": "Cc1c[nH]c2nccc(Oc3c(F)cc(Nc4cc(Cl)nc(N)n4)cc3F)c12", "inhibition [%]": -1.5}
{"Compound": "Cc1nc(C2CCN(C(=O)c3ccc(OC(F)(F)F)cc3N)CC2)c2ncc(N3CCN(C)CC3)cc2n1", "inhibition [%]": -1.38}
{"Compound": "CN1CCN(C(=O)C(C)(C)c2ccc(C(=O)Nc3cn4cc(-c5ccncc5)ccc4n3)cc2)CC1", "inhibition [%]": -15.7}
{"Compound": "C[C@@]1(Cc2ccc(C#N)cc2)C(=O)N(c2cc(Cl)cc(Cl)c2)c2ncc(C(=O)NC3(c4nc(C5CCC5)no4)CC3)n21", "inhibition [%]": 16.1}
{"Compound": "CC(=O)Nc1nc(CN2CCC[C@H](Cc3cc(C)nc(C)c3)C2)cs1", "inhibition [%]": 25.6}
{"Compound": "Cc1cc(-n2nc(Cc3cc(F)cc(C(F)(F)F)c3)nc2C)ccc1C(N)=O", "inhibition [%]": 6.25}
{"Compound": "O=C(O)c1cc(-c2ccc(C3CCNCC3)cc2)c2ccc(-c3ccc(C(F)(F)F)cc3)cc2c1", "inhibition [%]": 5.62}
{"data": "Block 4", "cell line": "HaCaT", "concentration": "100 µM", "time": "36 h"}
{"SMILES": "COC(=O)c1ccc2c(c1)NC(=O)/C2=C(\\Nc1ccc(N(C)C(=O)CN2CCN(C)CC2)cc1)c1ccccc1", "viability [%]": 112}
{"SMILES": "CN(C)CC/C=C1/c2ccccc2COc2ccc(CC(=O)O)cc21", "viability [%]": 90.9}
{"SMILES": "Nc1ncnc2c1ncn2[C@@H]1O[C@H](CO)[C@@H](O)[C@@H]1O", "viability [%]": 49.6}
{"SMILES": "CS(=O)(=O)c1ccc(C2=C(c3ccccc3)C(=O)OC2)cc1", "viability [%]": 110}
{"SMILES": "COc1nc(C)nc(Cl)c1N=C1NCCN1", "viability [%]": 100}
{"SMILES": "Cn1c(NCCN(CCO)CCCc2ccc([N+](=O)[O-])cc2)cc(=O)n(C)c1=O", "viability [%]": 99.8}
{"data": "Block 5", "species": "mouse", "matrix": "microsomes or S9", "concentration": "2 µM", "time": "0.5 h"}
{"Structure (SMILES)": "Cc1c(NC(=O)c2cnn3cc(Br)cnc23)c(=O)n(-c2ccccc2)n1C", "remaining compound [%]": 84}
{"Structure (SMILES)": "COc1cc(=O)n2c(c1C(=O)Nc1ccc(C(F)(F)F)cc1)CCCC2", "remaining compound [%]": 69.7}
{"Structure (SMILES)": "Cc1cccn2c(=O)c(/C=N/O)c(NCc3ccco3)nc12", "remaining compound [%]": "> 99"}
{"Structure (SMILES)": "CC(C)C(=O)Nc1ccc(N2CCCCC2C)cc1 (stereo not shown)", "remaining compound [%]": 24.3}
{"Structure (SMILES)": "Fc1ccc(-c2n[nH]cc2Cn2cnc(-c3ccccc3)c2-c2ncc[nH]2)cc1", "remaining compound [%]": 0.308}
{"Structure (SMILES)": "CC1NC(=O)CCC1NS(=O)(=O)c1cccc2ccoc12 (stereo not shown)", "remaining compound [%]": 75.3}
{"Structure (SMILES)": "CC1(C)CC(n2[nH]c(=O)c3c2N=C(O)CSC3C2CCCCC2)CCO1 (stereo not shown)", "remaining compound [%]": 94.3}
{"Structure (SMILES)": "CC(Oc1ccccc1)C(=O)Nc1c(-c2ccccc2)nc2sccn12 (stereo not shown)", "remaining compound [%]": 1.19}
{"Structure (SMILES)": "CCO[C@H]1CN(Cc2cccc(F)c2OC)C[C@@H]1O", "remaining compound [%]": 42.7}
